{"data": "Results of several laboratories", "target": "Casein kinase I isoform gamma-1 (CSNK1G1, Homo sapiens, UniProt Q9HCP0)", "note": "Each line is one published result; not all experiments were run side by side. Values joined by “and” are separate records of one study, mostly repeats; a detail may differ.", "sequence of UniProt Q9HCP0 (whole entry, looked up)": "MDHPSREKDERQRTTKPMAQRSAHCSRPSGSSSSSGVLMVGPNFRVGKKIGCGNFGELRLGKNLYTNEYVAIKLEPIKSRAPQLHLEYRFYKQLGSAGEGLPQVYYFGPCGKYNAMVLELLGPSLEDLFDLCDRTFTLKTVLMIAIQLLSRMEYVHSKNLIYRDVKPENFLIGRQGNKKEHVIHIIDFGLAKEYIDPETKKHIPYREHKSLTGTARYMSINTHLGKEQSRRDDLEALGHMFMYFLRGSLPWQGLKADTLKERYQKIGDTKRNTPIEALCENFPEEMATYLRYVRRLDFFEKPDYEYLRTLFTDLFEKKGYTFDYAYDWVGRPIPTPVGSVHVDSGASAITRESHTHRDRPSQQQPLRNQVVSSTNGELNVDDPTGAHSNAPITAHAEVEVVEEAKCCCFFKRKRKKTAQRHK"}
{"SMILES": "Cc1cnc2nc1Nc1cccc(c1)COC/C=C/COCc1cc(ccc1OCCN1CCOCC1)N2", "conditions": "concentration not given", "measurement": "percent of control", "value": "86%"}
{"SMILES": "CNC(=O)C[C@H](Cc1ccc(C#N)cc1)NC(=O)c1cc(-c2ccc(CN[C@H](C)c3ccc(C)cc3)o2)ccc1Cl", "assay": "enzyme activity, inhibitor", "conditions": "1 µM", "measurement": "activity vs control", "value": "100%"}
{"SMILES": "Cc1cccc(O[C@H]2CCC[C@@H](C(C)CNCc3ccncc3)C2)c1 (relative stereo)", "assay": "kinase activity, kinome panel screening", "conditions": "1 µM", "measurement": "inhibition", "value": "-3%"}
{"SMILES": "Cc1nc2c(F)cc(-c3nc(Nc4ccc(CNC(=O)CCCCCCC(=O)NO)cc4)ncc3F)cc2n1C(C)C", "assay": "enzyme activity, inhibitor", "conditions": "1 µM", "measurement": "inhibition", "value": "27%"}
{"SMILES": "COCC12C(=O)NC3C4(C(OC)CC1O)C1CC5(O)C(OC)C(O)C(OC(C)=O)(C1C5OC(=O)c1ccccc1)C3(O)C(OC)C24 (stereo not shown)", "assay": "kinase activity, inhibitor, ProQinase kinase profiling", "conditions": "25 µM", "how to read": "baseline: control", "measurement": "remaining activity", "value": "93% and 106%"}
{"SMILES": "C=CC(=O)N1CCCC(n2c(=O)c3ncccc3n(Cc3ccc(Oc4ccccc4)cc3)c2=O)C1 (stereo not shown)", "assay": "cell-free assay, competition with immobilised ligand", "conditions": "1 µM", "measurement": "remaining binding", "value": "100%"}
{"SMILES": "COc1ccc(NC(=O)Nc2ccc3c(c2)C(=O)N(C(C)CO)CC(C)C(CN(C)Cc2ccc4c(c2)OCO4)O3)cc1 (stereo not shown)", "assay": "kinase activity, KinaseProfiler", "conditions": "0.03 µM, species human", "how to read": "baseline: control", "measurement": "remaining activity", "value": "104%"}
{"SMILES": "CC(C)=CC1OC(C)(C)C2C=C3C(=O)C(Cl)=CC(O)C3C3C(O)C4OC4C(=O)C132 (stereo not shown)", "assay": "cell-free assay, competition with immobilised ligand", "conditions": "10 µM", "measurement": "remaining binding", "value": "94%"}
{"SMILES": "COc1cc(Nc2nccc(-c3cnn4nc(OC)ccc34)n2)cc(C(F)(F)F)c1", "assay": "binding, competition with immobilised ligand", "conditions": "1 µM", "measurement": "remaining binding", "value": "100%"}
{"SMILES": "CNC1C[S+]2CC[S+]3CC[S+](C1)[Ru-4]321([N]=C=S)[n]2c3ccc(OC)cc3c3c4c(c5cc(F)c[n+]1c5c32)C(=O)NC4=O (stereo not shown)", "assay": "KinomeScan", "conditions": "0.1 µM", "how to read": "baseline: untreated", "measurement": "remaining binding", "value": "100%"}
{"SMILES": "C=CC(=O)N1CCc2ccc(-n3c(=O)ccc4cnc5ccc(-c6cnn(C)c6)cc5c43)cc21", "assay": "KINOMEscan", "conditions": "1 µM", "how to read": "baseline: DMSO control", "measurement": "remaining binding", "value": "91%"}
{"SMILES": "CCn1cc(C(=O)O)c(=O)c2c(N)c(F)c(NC3CCCCC3)cc21", "assay": "kinase activity", "conditions": "0.1 µM, with: ATP at Km", "measurement": "inhibition", "value": "1.8%"}
{"SMILES": "Nc1ncc2c(n1)-c1c([nH]c3ccc(C4=CCOCC4)cc13)CCC2", "assay": "binding, competition with immobilised ligand", "conditions": "1 µM", "measurement": "remaining binding", "value": "100%"}
{"SMILES": "C=CC(=O)Nc1cccc(-c2cnc3[nH]cc(C(=O)NC(C)(C)C)c3n2)c1", "assay": "kinase activity", "conditions": "0.1 µM", "measurement": "inhibition", "value": "9% and 5%"}
{"SMILES": "CN1CC[C@@H](COc2cnc(C#N)cc2-c2ccn3nc(NC(=O)C4CC4)cc3c2)C1", "assay": "enzyme activity, inhibitor", "conditions": "1 µM", "measurement": "inhibition", "value": "-6%"}
{"SMILES": "NC(=O)[C@@H](O)C[C@H]1CCc2sc3ncnc(O[C@H]4CC[C@H](N5CCOCC5)CC4)c3c21", "assay": "enzyme activity, inhibitor", "conditions": "10 µM", "measurement": "inhibition", "value": "4%"}
{"note": "Excerpt of the above:"}
{"SMILES": "CNC(=O)C[C@H](Cc1ccc(C#N)cc1)NC(=O)c1cc(-c2ccc(CN[C@H](C)c3ccc(C)cc3)o2)ccc1Cl", "assay": "enzyme activity, inhibitor", "conditions": "1 µM", "measurement": "activity vs control", "value": "100%"}
